Published values collected from several papers.
Parts stem from different laboratories: compare values within a part only.

Sample 1
Target: Sal-like protein 4, full length isoform A (SALL4, Homo sapiens, UniProt Q9UJQ4, residues 1-1053)
Chain of UniProt Q9UJQ4 (whole entry, looked up): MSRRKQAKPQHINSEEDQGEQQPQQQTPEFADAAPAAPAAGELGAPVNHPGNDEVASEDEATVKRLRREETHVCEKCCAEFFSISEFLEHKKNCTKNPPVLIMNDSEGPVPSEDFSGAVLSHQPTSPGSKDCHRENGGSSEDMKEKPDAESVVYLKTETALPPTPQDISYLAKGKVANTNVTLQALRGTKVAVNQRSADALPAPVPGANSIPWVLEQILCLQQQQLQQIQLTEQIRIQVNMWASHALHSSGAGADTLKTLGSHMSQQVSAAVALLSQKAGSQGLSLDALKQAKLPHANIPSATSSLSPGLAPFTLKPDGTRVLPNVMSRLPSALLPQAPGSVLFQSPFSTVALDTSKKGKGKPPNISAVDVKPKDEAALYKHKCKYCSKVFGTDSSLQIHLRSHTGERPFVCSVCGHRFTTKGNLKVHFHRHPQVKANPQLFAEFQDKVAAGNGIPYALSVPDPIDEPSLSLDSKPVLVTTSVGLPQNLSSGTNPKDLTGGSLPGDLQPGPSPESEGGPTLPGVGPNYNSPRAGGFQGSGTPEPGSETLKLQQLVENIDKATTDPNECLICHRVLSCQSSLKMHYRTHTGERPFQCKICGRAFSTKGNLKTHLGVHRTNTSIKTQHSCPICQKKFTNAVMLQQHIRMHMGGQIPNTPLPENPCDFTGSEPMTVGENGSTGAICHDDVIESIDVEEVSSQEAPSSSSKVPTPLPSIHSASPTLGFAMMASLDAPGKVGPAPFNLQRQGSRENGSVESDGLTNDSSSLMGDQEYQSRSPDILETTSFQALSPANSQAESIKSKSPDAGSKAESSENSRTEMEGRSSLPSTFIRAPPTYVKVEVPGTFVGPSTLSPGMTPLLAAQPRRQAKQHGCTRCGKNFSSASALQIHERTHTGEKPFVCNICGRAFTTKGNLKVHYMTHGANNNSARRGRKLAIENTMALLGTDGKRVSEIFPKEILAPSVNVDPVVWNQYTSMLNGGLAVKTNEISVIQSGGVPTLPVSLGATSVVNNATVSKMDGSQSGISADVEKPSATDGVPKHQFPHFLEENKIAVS
Technique: universal PBM
Form: double-stranded DNA, one strand shown
Matrix: in vitro
Tested at: 600 nM
Notes: 8-mer, flanks averaged, mean of replicates
Direction: higher = stronger binding
Measurement: E-score
AAACCTTC: -0.112
GCTCCAGA: -0.305
CGCATCAG: -0.063
AGGTTGGG: -0.137
CTTGATTC: 0.0903

Sample 2
Target: Histone acetyltransferase KAT6A, winged helix 1, GST fusion (KAT6A, Homo sapiens, UniProt Q92794, residues 1-85)
Technique: protein binding microarray
Form: double-stranded DNA, one strand shown
Matrix: in vitro
Tested at: not given
Notes: 8-mer, flanks averaged, mean of 2 arrays, mostly near background
Baseline: not given
Direction: higher = stronger binding
Measurement: E-score
Residues (chain): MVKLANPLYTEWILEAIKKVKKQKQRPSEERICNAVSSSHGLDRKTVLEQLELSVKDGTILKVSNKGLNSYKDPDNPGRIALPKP
GGGTGTCA: -0.0118
GGAAGTAA: -0.0766
CTTTATAA: -0.162
ATGACCGA: 0.0283
CTAAATGC: -0.0542

Sample 3
Target: Interferon regulatory factor 5, full length, phosphomimetic (IRF5, Homo sapiens, UniProt Q13568-2, residues 1-514, K96S/S451D/S453D/S456D/S462D)
Technique: protein-binding microarray
Form: double-stranded DNA, one strand shown
Matrix: in vitro
Tested at: 250 nM
Notes: 60-bp whole probe
Together with: salmon DNA 0.4 mg/ml
Baseline: random background probes
Direction: higher = stronger binding
Measurement: log fluorescence
All sequences stand within: GCCTAGCAC … GTCTTGATTCGCTTGACGCTGCTG
GACGGTTTCGGTTTCCGGACGTGCTAG: 10.1 z-score
GACGGACTGGGGTTTAGGGACGTGCTA: -0.317 z-score
GACGGTATCGGTTTCGGGCCGTGCTAG: 8.58 z-score
TCAATGTTCCCTATATAACTGTGCTAG: 0.586 z-score
CGAGACCTCGTCTCTATCAAAGTGCTA: -0.0969 z-score
TTTACTAGGAGTTTTCAGTCCGTGCTA: 1.07 z-score

Single results of other studies
PhoQ, residues 284 288 289 292 302 303 AQGLTV
fold induction (PhoP, residues 12 14 15 18 19 LHTVL (Escherichia coli, UniProt P23836); Sort-seq, measured: YFP reporter; E. coli; PhoQ-PhoP variant library, together with: 10 µM Mg2+; baseline: high Mg2+ state, higher = stronger signaling): 3.64

Repeated from above (sample 2):
GGGTGTCA: -0.0118
GGAAGTAA: -0.0766
